Assay results from different studies.
Parts stem from different laboratories: compare values within a part only. Positions count from the first letter of the parent shown.

Block 1
Target: RNA binding protein fox-1 homolog 2, RRM domain, GST-SBP tag (RBFOX2, Homo sapiens, UniProt O43251-10, residues 100-194)
Technique: RNA Bind-n-Seq
Form: RNA
Medium: in vitro
Concentration: 365 nM
Setting: natural RNA segment, single round, ends assumed
Reference: no-protein control
Direction: higher = stronger binding
Construct (chain): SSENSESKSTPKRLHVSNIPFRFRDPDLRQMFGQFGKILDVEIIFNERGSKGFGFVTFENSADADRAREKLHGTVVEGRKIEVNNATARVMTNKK
| Sequence | RBNS enrichment (R) |
| --- | --- |
| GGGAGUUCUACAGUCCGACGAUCGUAUUUAAAACUAGAAUAGCCAGUAUUUAUGUUUUUUAUAAAACUGUGCAAUACGAAUUAUGCAAUCACAAUACAUUUGUAGCUCCCGAGUGUCCUAAAGGGAGUGCACUUGGAAUUCUCGGGUGCCAA | 0.45 |
| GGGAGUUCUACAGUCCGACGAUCUUCCUUUCCUCCUCUCAGUGUCCUCAGCACCCACAAGGAAUUUUCCUAUCACUGUGAACUUUGCUGGUACAGAGGAAUAAUAUCUGCCUUCACCUUUUUUUUUUUGGACCUGGAAUUCUCGGGUGCCAA | 0.847 |
| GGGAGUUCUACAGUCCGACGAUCUAAAGUGUAACCAUCAGUUAAACCUCUCCUGUCAUUCCUGGCUUCCUUGCUUCAGAAUUGAAAUGGAAGUGGGGGUGUCCCUACUCUGUAGAAUCUGGGACUGGGCAAAUUGGAAUUCUCGGGUGCCAA | 0.27 |
| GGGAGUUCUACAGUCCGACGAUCGAGAUAUCUUUUUAGGAUCUGUUAGGAAUAAGAUUGAUAUUGUAUUGUGUGUAACCUGCACAAUGUGGAAAGCUGAUGAACCUGUGCCUCCGUGCUGUCAGUGUGGUGUGUGGAAUUCUCGGGUGCCAA | 0.695 |
| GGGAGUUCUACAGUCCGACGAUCAGCAGAGCCUGAAAUUAAACUCAUUUGUUUCCAGCAUCCGUGUGUUUGCACAAAGGAUUUGACGCCACAGGAGUGUGUGAGGAAGACAGGGCGGGCUGAGGGCAGAAGGCUGGAAUUCUCGGGUGCCAA | 1.36 |
| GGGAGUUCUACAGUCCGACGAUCUUUUGAAGGCAUGAGGCCAGUGACCCAAAGCACAGGUGCAAGUGUGCCUGGAAGGCUUCCAGCCAAAACCAGUAAUUCCCUGCUUUCUUGUAUACAGAGUGUUCACUGCUUGGAAUUCUCGGGUGCCAA | 0.387 |
| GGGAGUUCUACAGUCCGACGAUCUCUCUUAGAUUGAAGUGACAGAAUCUGAAAGAAAAGAAUAUGAUUGAGCUAUUUGUUUUCCUGAACACCUCACCUUUUAUGAUGCAAUAAGUUACUCUGAGUUUCUUGGCUGGAAUUCUCGGGUGCCAA | 0.999 |
| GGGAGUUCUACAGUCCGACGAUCGAUUUCAGUAGCACAAGUUAUUUAAAUCUGUUUUUCUAACUGGGGGAAAAGAUUCCCACCCAAUUCAAAACAUUGUGCCAUGUCAAACAAAUAGUCUAUCAACCCCAGACUGGAAUUCUCGGGUGCCAA | 0.553 |
| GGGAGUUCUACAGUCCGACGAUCUAAAAUAAUCACCAUAGUAACUUGAUAUGUUAGUAUUUUUCUUUUUCCUUUUAGUAUGUUUCAAGUGCAGUAAUCGUACUUGUCUAUCCAGUUUCUAUGUAUGAUACGAGUGGAAUUCUCGGGUGCCAA | 0.69 |
| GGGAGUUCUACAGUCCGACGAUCAGACAGCGGGUUGCAGCCACCCCACACUGACCGGCCGCUGAGGAGCAGAUAACCACUUGUUCUUUACUUUUUACAGGUGUGGGAUCCCGAUCCUGAGCUGUGUCCUCUGUUGGAAUUCUCGGGUGCCAA | 0.241 |
| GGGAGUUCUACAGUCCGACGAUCGAGUUCCGAAGCAAGUCAAGUUUGUAAAUGCAUACCUAAAAAUAUUUAAUAAACGAUGCAGAAUCCUAUGCAGUGACUGGCUGGUGGCUUUCAUUUGUCAUUUCCUUGUGUGGAAUUCUCGGGUGCCAA | 0.505 |
| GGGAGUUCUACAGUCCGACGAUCUGAGGCCGGCAGCCCUUGGGGCUGGGGAGAGCACAGCUUGCCUUGGACUUGCUUCUGAACACGAAUUCUUCGAGAACUAGGCUCAGAUGCUCUGCUGGAGUGUUGGCCUCUGGAAUUCUCGGGUGCCAA | 0.411 |

Block 2
Target: Sal-like protein 4, full length isoform B (SALL4, Homo sapiens, UniProt Q9UJQ4-2, residues 1-616)
Technique: universal PBM
Form: double-stranded DNA, one strand shown
Medium: in vitro
Concentration: not given
Setting: 8-mer, flanks averaged, mean of replicates
Direction: higher = stronger binding
| Sequence | E-score |
| --- | --- |
| ACCTATGG | -0.0128 |
| AGTTTAAC | 0.0545 |
| GCCAATGA | -0.0805 |
| CCTTTCAG | -0.0923 |
| TGCAAAAA | 0.237 |
| AACCCGAT | -0.0753 |
| CTACCTAC | 0.0152 |
| AACCAAGC | -0.119 |
| CGCTATTC | 0.0422 |
| CCGCAGAC | -0.244 |
| CAGAAAAG | -0.00039 |
| ATCTTACG | 0.117 |
| AAGACGCC | -0.11 |
| ACATGTGA | 0.147 |
| ACGCACCG | -0.202 |
| CGTTGGTA | -0.0148 |
| CGTATTCC | 0.0831 |
| AGGTCATA | 0.163 |
| ATGATCAT | 0.192 |
| CGCACGCG | -0.299 |
| GAAGCGAC | -0.101 |
| AAGGAACC | -0.132 |
| CAAAGGAG | 0.0522 |
| GGGGCCGA | -0.305 |

Block 3
Target: ABI1, truncated, D143A, DHFR fusion (Arabidopsis thaliana)
Technique: DHFR PCA, deep sequencing
Medium: yeast
Setting: methotrexate growth selection, single substitutions
Added: (+)-ABA 0.0091 µM
Reference: wild-type fitted maximum
Direction: higher = stronger binding
Starting sequence: PYL1, truncated, DHFR fusion (Arabidopsis thaliana); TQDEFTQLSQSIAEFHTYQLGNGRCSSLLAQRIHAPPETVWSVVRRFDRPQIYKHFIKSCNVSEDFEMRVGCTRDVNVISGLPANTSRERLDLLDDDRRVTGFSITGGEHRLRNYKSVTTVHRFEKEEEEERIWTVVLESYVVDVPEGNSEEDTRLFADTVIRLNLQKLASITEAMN
| Substitution | relative binding score |
| --- | --- |
| P37G | -4.97% |
| Q7L | 14.6% |
| V121H | -1.67% |
| L166M | -2.47% |
| Q167H | 5.54% |
| L82H | 25.5% |
| R111W | 1.44% |
| G108Q | -5.82% |
| H55Y | 12.4% |
| R24Q | 63.8% |
| Q31C | 1.28% |
| M176K | 10.2% |
| I162D | -1.81% |
| F56S | -1.26% |
| G23D | 7.32% |
| R32T | 37.8% |

Block 4
Target: Histone acetyltransferase KAT6A, winged helix 2, GST fusion (KAT6A, Homo sapiens, UniProt Q92794, residues 85-181)
Technique: protein binding microarray
Form: double-stranded DNA, one strand shown
Medium: in vitro
Concentration: not given
Setting: 8-mer, flanks averaged, mean of 2 arrays, mostly near background
Reference: not given
Direction: higher = stronger binding
Construct (chain): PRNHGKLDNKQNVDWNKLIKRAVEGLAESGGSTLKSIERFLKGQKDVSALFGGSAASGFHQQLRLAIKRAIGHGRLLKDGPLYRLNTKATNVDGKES
| Sequence | E-score |
| --- | --- |
| CGGTTACA | 0.0877 |
| AATAGCAT | 0.0546 |
| CGCCCAAA | 0.17 |
| GAGTACAC | -0.0321 |
| ACCGCTAT | -0.0174 |
| GATCGTAA | -0.113 |
| TAATGAAA | 0.22 |
| TAAGGCAA | -0.0361 |
| CCCTGTCG | 0.112 |
| CCCGTCGG | 0.144 |
| AAGAAGTG | -0.252 |
| ATTTTGGC | 0.232 |
| CAGCGCTC | 0.00041 |
| ATCTATGC | -0.0206 |
| AGTCATAA | -0.187 |
| CACGGTTA | 0.00359 |

Block 5
Target: Interferon regulatory factor 7, full length, phosphomimetic (IRF7, Homo sapiens, UniProt Q92985, residues 1-503, S101K/S471D/S472D/S475D/S476D/S477D/S483D/S484D/S487D)
Technique: protein-binding microarray
Form: double-stranded DNA, one strand shown
Medium: in vitro
Concentration: 250 nM
Setting: 60-bp whole probe
Added: salmon DNA 0.4 mg/ml
Reference: random background probes
Direction: higher = stronger binding
Constant ends, left off below: GCCTAGCAC … GTCTTGATTCGCTTGACGCTGCTG
Residues (chain): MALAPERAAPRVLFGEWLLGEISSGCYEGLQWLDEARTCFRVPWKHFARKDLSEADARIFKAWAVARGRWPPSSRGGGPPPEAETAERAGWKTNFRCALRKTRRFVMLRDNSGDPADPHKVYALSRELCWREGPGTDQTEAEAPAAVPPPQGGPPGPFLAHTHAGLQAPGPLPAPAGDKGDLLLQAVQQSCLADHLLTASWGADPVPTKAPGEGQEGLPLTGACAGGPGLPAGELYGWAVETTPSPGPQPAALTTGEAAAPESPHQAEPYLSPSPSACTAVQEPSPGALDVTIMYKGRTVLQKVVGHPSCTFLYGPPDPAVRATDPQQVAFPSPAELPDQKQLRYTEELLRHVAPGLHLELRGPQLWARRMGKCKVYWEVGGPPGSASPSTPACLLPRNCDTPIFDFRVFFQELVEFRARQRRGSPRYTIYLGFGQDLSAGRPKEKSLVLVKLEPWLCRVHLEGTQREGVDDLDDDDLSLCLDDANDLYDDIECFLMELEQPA
| Sequence | log fluorescence [z-score] |
| --- | --- |
| TTAGATTCCAGTTTAGATTAGTGCTAG | 2.37 |
| TTAGGACTGCTTCTCGTTTAGTGCTAG | 1.09 |
| GACGGTCTCCTTATCCTGAGGTGCTAG | 0.0513 |
| AGGCTTTTTTTTTTTTTTTTGTGCTAG | 0.0587 |
| CCAAACCTGTGCGCCGTGCCGTGCTAG | -0.203 |
| TTAGATTTCAGTTTCGATTTGTGCTAG | 13.2 |
| GACGGTATCCTACTGCTCACGTGCTAG | -0.193 |
| TTAGGTTACGGACTGGGTTAGTGCTAG | 0.0923 |
| TCATGTTTGGCCCTGAAACTGTGCTAG | 0.403 |
| ATGGCTTTGCCTTTTGCTTTGTGCTAG | -1.04 |
| TTAGATATCGGGTTTCGATCAGTGCTA | 2.8 |
| GACGGACTGGATTTCGGGACGTGCTAG | -0.325 |
| TTAGGAGTGGACTTTCGGTTAGTGCTA | 0.242 |
| TTAGATATCAGTATCGATGAGTGCTAG | -0.0347 |
| TTAGGTTCCGATTTCGGTTAGTGCTAG | 5.8 |
| GACGGACTGCTTTACCTGACGTGCTAG | 0.121 |
| TTAGATTTCAGATTGGATTAGTGCTAG | 0.464 |
| TCATATTTATGTATACAACTGTGCTAG | 0.978 |
| TTAGGTCTCCTTATCCTTTTGTGCTAG | 0.659 |

Block 6
Target: CCNA2, cyclin fold, Cln2 fusion (human)
Technique: yeast growth competition, sequencing
Medium: yeast
Setting: strong parent motif
Reference: not given
Direction: higher = stronger binding
Starting sequence: CDT1 docking peptide (human); PPARRRLRLSVDE; partner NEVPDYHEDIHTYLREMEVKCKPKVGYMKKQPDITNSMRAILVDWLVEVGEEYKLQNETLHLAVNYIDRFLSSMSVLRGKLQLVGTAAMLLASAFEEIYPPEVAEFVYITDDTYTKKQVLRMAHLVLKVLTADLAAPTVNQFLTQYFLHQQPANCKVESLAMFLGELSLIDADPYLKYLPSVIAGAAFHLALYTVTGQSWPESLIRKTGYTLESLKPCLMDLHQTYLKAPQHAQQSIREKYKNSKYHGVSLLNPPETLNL
| Substitution | normalised enrichment score |
| --- | --- |
| PPARKRLRFSVDE [R5K L9F] | 3.43 |
| PAARRRLRLSVDE [P2A] | 4.79 |
| PPARRRLRLSADE [V11A] | 4.86 |
| PPARRALRLSVDE [R6A] | 3.32 |
| PPARRRLALSVDE [R8A] | 4.5 |
| PPARRRLRLAVDE [S10A] | 3.7 |
| PPARARLRLSVDE [R5A] | 0.717 |
